Measured values from different studies.
Protocols differ between the studies behind these lines. Values joined by “and” are separate records of one study, mostly repeats; a detail may differ. ± gives the spread as reported.
Genome polyprotein NS3 helicase domain: Genome polyprotein, NS3 helicase domain (Hepatitis C virus genotype 1b, UniProt Q9WMX2)
Glutamate receptor 2: Glutamate receptor 2 (Homo sapiens, UniProt P42262)
UniProt Q8IWT6, sequence (whole entry, unmodified, looked up): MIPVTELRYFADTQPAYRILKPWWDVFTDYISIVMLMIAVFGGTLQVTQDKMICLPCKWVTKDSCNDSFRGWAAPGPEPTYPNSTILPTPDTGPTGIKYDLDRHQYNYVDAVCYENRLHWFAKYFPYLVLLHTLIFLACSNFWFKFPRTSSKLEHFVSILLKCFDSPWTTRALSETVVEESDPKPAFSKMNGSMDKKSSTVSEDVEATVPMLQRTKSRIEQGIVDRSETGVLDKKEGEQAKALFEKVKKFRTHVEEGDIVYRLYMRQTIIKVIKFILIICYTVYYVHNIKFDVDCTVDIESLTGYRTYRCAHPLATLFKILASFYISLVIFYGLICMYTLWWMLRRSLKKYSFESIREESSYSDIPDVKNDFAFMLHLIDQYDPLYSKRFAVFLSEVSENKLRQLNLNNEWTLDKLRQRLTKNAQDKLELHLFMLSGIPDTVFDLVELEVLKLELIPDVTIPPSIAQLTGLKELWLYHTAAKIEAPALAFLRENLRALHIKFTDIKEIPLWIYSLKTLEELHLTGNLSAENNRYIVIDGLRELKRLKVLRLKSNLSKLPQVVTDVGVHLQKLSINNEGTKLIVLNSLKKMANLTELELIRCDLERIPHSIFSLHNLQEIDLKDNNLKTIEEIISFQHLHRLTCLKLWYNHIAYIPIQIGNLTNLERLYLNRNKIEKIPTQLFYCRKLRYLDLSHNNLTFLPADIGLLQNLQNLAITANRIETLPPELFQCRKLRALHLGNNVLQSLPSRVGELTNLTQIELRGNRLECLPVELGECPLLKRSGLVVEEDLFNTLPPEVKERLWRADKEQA
UniProt Q16774, sequence (whole entry, unmodified, looked up): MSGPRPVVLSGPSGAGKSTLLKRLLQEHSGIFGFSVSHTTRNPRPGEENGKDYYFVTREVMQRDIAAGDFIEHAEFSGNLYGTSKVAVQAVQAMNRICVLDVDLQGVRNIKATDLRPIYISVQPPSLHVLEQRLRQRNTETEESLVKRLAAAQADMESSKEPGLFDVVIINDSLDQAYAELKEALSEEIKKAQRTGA
UniProt Q93009, sequence (whole entry, unmodified, looked up): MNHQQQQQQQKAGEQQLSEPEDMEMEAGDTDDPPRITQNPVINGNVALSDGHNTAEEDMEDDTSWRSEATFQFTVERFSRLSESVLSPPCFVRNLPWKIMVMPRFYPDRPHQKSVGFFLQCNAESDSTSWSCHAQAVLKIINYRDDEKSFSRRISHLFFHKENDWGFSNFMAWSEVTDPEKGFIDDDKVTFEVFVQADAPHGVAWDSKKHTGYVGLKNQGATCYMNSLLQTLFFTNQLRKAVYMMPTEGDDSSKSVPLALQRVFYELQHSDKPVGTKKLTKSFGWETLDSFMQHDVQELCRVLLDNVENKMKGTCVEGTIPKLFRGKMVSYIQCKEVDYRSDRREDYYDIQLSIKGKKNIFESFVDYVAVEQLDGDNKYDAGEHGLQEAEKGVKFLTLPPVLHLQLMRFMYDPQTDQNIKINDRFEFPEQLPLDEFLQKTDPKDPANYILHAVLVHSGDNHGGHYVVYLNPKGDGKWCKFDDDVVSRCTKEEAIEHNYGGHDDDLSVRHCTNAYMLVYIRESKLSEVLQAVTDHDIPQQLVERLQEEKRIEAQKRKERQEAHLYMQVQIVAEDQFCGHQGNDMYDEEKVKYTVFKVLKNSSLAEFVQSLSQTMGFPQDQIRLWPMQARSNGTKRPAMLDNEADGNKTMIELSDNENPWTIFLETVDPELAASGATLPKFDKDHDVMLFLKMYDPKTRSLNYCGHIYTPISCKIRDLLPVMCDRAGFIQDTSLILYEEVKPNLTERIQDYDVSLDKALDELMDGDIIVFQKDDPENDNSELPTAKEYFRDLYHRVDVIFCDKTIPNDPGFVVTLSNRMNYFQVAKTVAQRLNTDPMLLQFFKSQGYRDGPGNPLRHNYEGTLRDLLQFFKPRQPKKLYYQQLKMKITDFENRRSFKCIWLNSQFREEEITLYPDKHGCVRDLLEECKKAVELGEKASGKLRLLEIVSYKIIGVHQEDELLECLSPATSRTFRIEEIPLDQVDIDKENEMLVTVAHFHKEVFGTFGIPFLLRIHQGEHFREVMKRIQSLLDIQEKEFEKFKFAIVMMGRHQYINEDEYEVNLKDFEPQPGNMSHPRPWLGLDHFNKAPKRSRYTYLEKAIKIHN
UniProt P42262, sequence (whole entry, looked up): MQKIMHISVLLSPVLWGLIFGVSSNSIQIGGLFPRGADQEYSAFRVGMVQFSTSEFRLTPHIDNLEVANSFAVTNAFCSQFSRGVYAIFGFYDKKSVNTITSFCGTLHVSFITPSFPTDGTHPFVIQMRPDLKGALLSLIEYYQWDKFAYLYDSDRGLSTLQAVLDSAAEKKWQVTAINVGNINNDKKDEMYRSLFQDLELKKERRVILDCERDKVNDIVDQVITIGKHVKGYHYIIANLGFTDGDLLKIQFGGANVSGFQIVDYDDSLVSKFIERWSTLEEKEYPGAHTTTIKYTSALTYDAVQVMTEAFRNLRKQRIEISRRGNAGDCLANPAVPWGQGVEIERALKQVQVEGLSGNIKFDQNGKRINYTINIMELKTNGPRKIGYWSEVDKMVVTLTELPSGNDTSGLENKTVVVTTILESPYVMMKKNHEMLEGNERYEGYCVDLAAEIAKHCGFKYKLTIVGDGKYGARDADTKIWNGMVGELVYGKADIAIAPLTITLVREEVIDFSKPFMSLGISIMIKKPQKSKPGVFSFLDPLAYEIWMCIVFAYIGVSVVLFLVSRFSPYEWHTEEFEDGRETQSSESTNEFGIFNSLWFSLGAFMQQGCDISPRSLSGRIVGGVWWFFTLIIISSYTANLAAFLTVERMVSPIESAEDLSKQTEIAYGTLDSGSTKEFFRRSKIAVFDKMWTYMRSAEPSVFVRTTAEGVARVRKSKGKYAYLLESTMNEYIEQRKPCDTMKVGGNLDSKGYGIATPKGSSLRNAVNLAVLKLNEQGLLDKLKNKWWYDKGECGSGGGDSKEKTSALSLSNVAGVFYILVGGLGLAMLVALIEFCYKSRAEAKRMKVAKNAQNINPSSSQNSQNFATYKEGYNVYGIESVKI
UniProt P05771, sequence (whole entry, looked up): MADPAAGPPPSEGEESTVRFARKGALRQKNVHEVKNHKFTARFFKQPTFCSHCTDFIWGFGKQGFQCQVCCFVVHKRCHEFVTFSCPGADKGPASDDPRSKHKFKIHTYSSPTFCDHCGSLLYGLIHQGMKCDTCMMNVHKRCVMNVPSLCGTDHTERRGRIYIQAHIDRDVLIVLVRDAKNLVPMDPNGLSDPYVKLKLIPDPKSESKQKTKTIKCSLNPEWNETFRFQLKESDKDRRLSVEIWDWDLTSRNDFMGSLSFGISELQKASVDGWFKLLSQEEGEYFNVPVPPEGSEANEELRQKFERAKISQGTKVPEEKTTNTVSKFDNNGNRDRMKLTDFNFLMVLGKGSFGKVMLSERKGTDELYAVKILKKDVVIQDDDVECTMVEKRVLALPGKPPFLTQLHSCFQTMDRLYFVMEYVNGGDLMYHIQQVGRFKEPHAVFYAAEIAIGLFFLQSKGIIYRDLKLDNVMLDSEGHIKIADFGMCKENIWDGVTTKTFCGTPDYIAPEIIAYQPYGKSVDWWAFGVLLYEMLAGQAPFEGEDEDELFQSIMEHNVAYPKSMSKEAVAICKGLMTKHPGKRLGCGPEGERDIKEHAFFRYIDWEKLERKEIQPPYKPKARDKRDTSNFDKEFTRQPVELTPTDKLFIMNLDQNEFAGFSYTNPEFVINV

For `COc1cc2nc(N3CCCN(C)CC3)nc(NC3CCN(Cc4ccccc4)CC3)c2cc1OC`, the inhibition was 3% (Genome polyprotein NS3 helicase domain; DNA binding, inhibitor; hepatitis C virus; 100 µM, added: Cy5-dT15 DNA).
With `CC(C)C[C@H](NC(=O)C[C@H](O)[C@H](CC(C)C)NC(=O)[C@H](Cc1c[nH]cn1)NC(=O)CNC(=O)[C@@H](NC(=O)[C@H](C)NC(=O)[C@H](Cc1c[nH]c2ccccc12)NC(=O)[C@H](CCC(N)=O)NC(=O)[C@@H](Cc1ccccc1)NC(=O)COCCOCCNC(=O)CCC(C(=O)O)N1CCN(CC(=O)O)CCN(CC(=O)O)CCN(CC(=O)O)CC1)C(C)C)C(N)=O` (stereo partly drawn) [lutetium-177 labelled] the tissue uptake was 1.2 ± 0.3 %ID/g (BALB/c nu/nu mice, female, liver; 100 pmol, 30 min, time course 0.5 h, added: PA 300 µg).
`Nc1ccc(N2C(=O)c3ccccc3C2=O)c(Cl)c1` has an inhibition of 0% (Genome polyprotein NS3 helicase domain; DNA binding, inhibitor; hepatitis C virus; 100 µM, added: Cy5-dT15 DNA).
`O=C(O)CN(CCN(CC(=O)O)CC(=O)O)CC(=O)O` has an inhibition of 38.8% (Hydroxyacylglutathione hydrolase, mitochondrial (Homo sapiens, UniProt Q16775); glyoxylase II activity; 100 µM).
For `Cn1cc(-c2ccc(-c3cncc(Cl)c3N3CCC4(CCNC4=O)CC3)cc2)cn1`, “log2 fold change” read 2.34 (COLO 205; gene expression, microarray, refers to: IL32 mRNA; concentration not given, 6 h; relative to: untreated cells).
With `[2H]c1cc(C)c(NC(=O)c2cnc(Nc3cc(N4CCCCC4)nc(C)n3)s2)c(Cl)c1` the inhibition was 30 to 90% (Tyrosine-protein kinase Srms (SRMS, Homo sapiens, UniProt Q9H3Y6); 0.01 µM).
For `COc1c(Nc2cc(C(F)(F)F)cc(C(F)(F)F)c2)c(=O)c1=O`, “pseudo-first-order rate constant” read 6.1 h⁻¹ (reaction with N-acetyl-lysine, HPLC-MS; pH 10.2, added: N-α-acetyl-lysine).
`CCNCc1cnn(-c2ccc(-n3ccc(Cl)c(Cl)c3=O)cc2)c1C(F)(F)F` — result for inhibition: “no inhibition” (Transient receptor potential cation channel subfamily A member 1 (Trpa1, Mus musculus, UniProt Q8BLA8); ion current, inhibitor, whole-cell patch clamp; 10 µM, added: AITC-activated).
`CC(C)C[C@H](NC(=O)C[C@H](O)[C@H](CC(C)C)NC(=O)[C@H](Cc1c[nH]cn1)NC(=O)CNC(=O)[C@@H](NC(=O)[C@H](C)NC(=O)[C@H](Cc1c[nH]c2ccccc12)NC(=O)[C@H](CCC(N)=O)NC(=O)[C@@H](Cc1ccccc1)NC(=O)COCCOCCNC(=O)CCC(C(=O)O)N1CCN(CC(=O)O)CCN(CC(=O)O)CC1)C(C)C)C(N)=O` (stereo partly drawn) [lutetium-177 labelled] gave a tissue uptake of 0.06 ± 0.03 %ID/g (female BALB/c nu/nu mice, stomach; intravenous, 50 pmol, 24 h).
The inhibition of `O=C(C[C@@H](C(F)F)n1ccc(F)n1)N1CCC(O)(Cn2cnc3c(cnn3-c3ccc(F)cc3)c2=O)CC1` is reported as 38.2% and 27.1% (Ubiquitin carboxyl-terminal hydrolase 7 (USP7, Homo sapiens, UniProt Q93009, V517F); enzyme activity, inhibitor; 5 µM).
`CC(C)[C@H](NC(=O)[C@H](Cc1ccc(O)cc1)NC(=O)[C@H](Cc1ccc(O)cc1)NC(=O)[C@@H]1CCCN1C(=O)[C@H](CCC(=O)O)NC(=O)[C@H](CCC(=O)O)NC(=O)[C@H](Cc1c[nH]c2ccccc12)NC(=O)[C@@H]1CCCN1C(=O)[C@@H](NC(=O)[C@H](CCC(N)=O)NC(=O)c1ccc2c(c1)C(=O)OC21c2ccc(O)cc2Oc2cc(O)ccc21)C(C)C)C(=O)N[C@H](C(=O)N[C@@H](CCCCN)C(=O)N[C@@H](CCCCN)C(=O)N[C@@H](CO)C(=O)N[C@@H](CO)C(=O)NCC(=O)NCC(N)=O)C(C)C`: “total plasma concentration” “not detected” (human, plasma; intravenous infusion, 40 mg, predose 0 min, day 1).
`CC12CC3CC(C)(C1)CC(N)(C3)C2` gave an inhibition of 15% (Glutamate receptor 2; ion current, negative allosteric modulator, SyncroPatch patch clamp; HEK293; 3 µM).
Under “cells with structural aberrations”, `c1csc(CNc2cc[nH]n2)c1` is recorded as 5% (human peripheral blood lymphocytes (female); 2160 µg/mL, 4 h, repeat, added: without S9).
With `CN1CC(Oc2cnc(C#N)cc2-c2ccn3nc(NC(=O)C4CC4)cc3c2)C1` the inhibition was 9% (Protein kinase C beta type, beta-I isoform (PRKCB, Homo sapiens, UniProt P05771); kinase activity; 1 µM).
Under “pseudo-first-order rate constant”, `Cc1ccc(S(=O)(=O)N(CC#N)C(=O)Cc2cc(C(F)(F)F)cc(C(F)(F)F)c2)cc1` is recorded as 2.6 h⁻¹ (reaction with N-acetyl-lysine, HPLC-MS; pH 10.2, added: N-α-acetyl-lysine).
With `C[C@H](CS)C(=O)N1CCC[C@H]1C(=O)O` the inhibition was 0% (Genome polyprotein NS3 helicase domain; NS3 helicase DNA binding, fluorescence binding; 100 µM, added: Cy5-dT15).
`Nc1c(Br)cc(Br)cc1CN[C@H]1CC[C@H](O)CC1` has an inhibition of 20% (Glutamate receptor 2; ion current, negative allosteric modulator, SyncroPatch patch clamp; HEK293; 30 µM).
`Nc1nc2c(ncn2[C@@H]2O[C@H](COP(=O)(O)O)[C@@H](O)[C@H]2O)c(=O)[nH]1` gave a reaction rate of 5.08 s⁻¹ and 6.37 s⁻¹ and 4.47 s⁻¹ (GUK1 (Homo sapiens, UniProt Q16774, S37A); enzyme activity, NADH-coupled; 2000 µM).
`O=c1ccc2c(OCCCCc3ccccc3)c3ccoc3cc2o1` gave an inhibition of 0% (Genome polyprotein NS3 helicase domain; DNA binding, inhibitor; hepatitis C virus; 100 µM, added: Cy5-dT15 DNA).
The inhibition of `Cc1ccc(CNC(=O)[C@H](CCc2ccccc2)NC(=O)[C@H](CCc2ccccc2)NC(=O)[C@H](CCc2ccccc2)NC(=O)c2cnc(C)cn2)cc1` is reported as 21% (Tissue-type plasminogen activator (PLAT, Homo sapiens, UniProt P00750); enzyme activity; 100 µM).
`O=C(Nc1cccc2c(=O)cc(-c3nnn[nH]3)oc12)c1ccc(OCCCCc2ccccc2)cc1` gave an inhibition of 81.1% and 59.1% and 73.2% and 73.7% and 62.2% and 76.1% (LRRC8A/LRRC8C (Homo sapiens, UniProt Q8IWT6+Q8TDW0, L134K/L136K); ion current, whole-cell patch clamp; LRRC8-/- HCT cells; 3 µM, L134K/L136K mutant, +100 mV).
`CCCCCCCCCCC1NCCc2cc(O)c(O)cc21` (stereo not drawn) gave an inhibition of -0.37 ± 0.57% (tyrosinase; enzyme activity, inhibitor; 100 µM, added: levodopa).
With `COc1cc2c(cc1OC)-c1c/c(=N\c3c(C)cc(C)cc3C)n(C)c(=O)n1CC2` the inhibition was 1% (Genome polyprotein NS3 helicase domain; DNA binding, inhibitor; hepatitis C virus; 100 µM, added: Cy5-dT15 DNA).
For `CC[C@@H]1[C@H](F)C(=O)N[C@@H]1COc1nccc2cc(C(N)=O)c(OC)cc12`, the inhibition was 2% (Serine/threonine-protein kinase TAO2 (TAOK2, Homo sapiens, UniProt Q9UL54); ATP probe binding, KiNativ profiling, refers to: Lys2 probe site; THP-1 cell lysate; 0.04 mM).
With `COc1ccc2[nH]c3c(c2c1)[C@H]1C[C@@H]([C@H]3C)N(Cc2ccccc2)C[C@]1(C)O` the inhibition was 0% (Kappa-type opioid receptor (OPRK1, Cavia porcellus, UniProt P41144); binding, radioligand binding; guinea pig brain; 1 µM, added: [3H]U-69,593).
For `CNCc1ccc(-c2[nH]c3cc(F)cc4c3c2CCNC4=O)cc1`, “patients with adverse event” read 42.9% (refers to: Vomiting; human patients; oral, dose not given, all grades, all doses).
With `O=C1c2ccccc2CCN1CCCCN1CCN(c2cccc(Cl)c2Cl)CC1` the inhibition was 99.7% (D(3) dopamine receptor (DRD3, Homo sapiens, UniProt P35462); radioligand binding; concentration not given, added: [3H]N-methylspiperone).

Excerpt of the above:
Under “cells with structural aberrations”, `c1csc(CNc2cc[nH]n2)c1` is recorded as 5% (human peripheral blood lymphocytes (female); 2160 µg/mL, 4 h, repeat, added: without S9).
With `CN1CC(Oc2cnc(C#N)cc2-c2ccn3nc(NC(=O)C4CC4)cc3c2)C1` the inhibition was 9% (Protein kinase C beta type, beta-I isoform (PRKCB, Homo sapiens, UniProt P05771); kinase activity; 1 µM).
